Measured values from different studies.
Each numbered part is a random draw from the data of one study; scales do not carry over between parts.

Block 1
Target: Sal-like protein 4, full length isoform B (SALL4, Homo sapiens, UniProt Q9UJQ4-2, residues 1-616)
Technique: universal PBM
Molecule type: double-stranded DNA, one strand shown
Medium: in vitro
Concentration: not given
Setting: 8-mer, flanks averaged, mean of replicates
Direction: higher = stronger binding
Target sequence (chain): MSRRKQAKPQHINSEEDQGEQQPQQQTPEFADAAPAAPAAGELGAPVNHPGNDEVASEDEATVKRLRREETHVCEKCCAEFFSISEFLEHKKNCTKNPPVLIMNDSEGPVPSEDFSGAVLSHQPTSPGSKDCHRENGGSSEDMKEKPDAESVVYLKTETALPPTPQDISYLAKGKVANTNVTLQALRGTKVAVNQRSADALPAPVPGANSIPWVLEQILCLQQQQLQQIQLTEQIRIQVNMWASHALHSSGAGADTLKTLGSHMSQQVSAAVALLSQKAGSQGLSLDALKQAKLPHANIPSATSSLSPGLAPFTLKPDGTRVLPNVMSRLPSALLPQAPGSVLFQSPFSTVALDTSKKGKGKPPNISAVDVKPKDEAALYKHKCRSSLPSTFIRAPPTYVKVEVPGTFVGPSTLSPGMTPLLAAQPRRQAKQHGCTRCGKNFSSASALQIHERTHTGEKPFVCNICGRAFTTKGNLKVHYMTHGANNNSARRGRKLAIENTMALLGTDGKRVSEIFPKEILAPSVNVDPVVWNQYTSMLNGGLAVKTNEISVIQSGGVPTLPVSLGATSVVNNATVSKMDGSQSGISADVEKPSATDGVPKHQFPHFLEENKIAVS
Oligonucleotide | E-score
CCGTAACA | 0.12
AGCCGTGA | -0.0902
CATGCCAC | -0.131
CTATGTAA | 0.242
CAGTTCGA | -0.0237
CCGCCACA | -0.273
CATAACGC | 0.167
CACGGAGG | -0.226
AGTACGTG | -0.0994
ATCAGAAC | 0.0551
AGTCAGTG | 0.00904
ATAGCTTC | 0.102
GCATAATA | 0.392
CTGTCATA | 0.265
ACAAAGTG | -0.00939
ACACGCCT | 0.101
CAATTCAA | 0.156
CCACAAGG | -0.267

Block 2
Target: RING finger protein unkempt homolog, zinc fingers 1-6, GST-SBP tag (UNK, Homo sapiens, UniProt Q9C0B0, residues 30-357)
Sequence of UniProt Q9C0B0 (30-357, looked up): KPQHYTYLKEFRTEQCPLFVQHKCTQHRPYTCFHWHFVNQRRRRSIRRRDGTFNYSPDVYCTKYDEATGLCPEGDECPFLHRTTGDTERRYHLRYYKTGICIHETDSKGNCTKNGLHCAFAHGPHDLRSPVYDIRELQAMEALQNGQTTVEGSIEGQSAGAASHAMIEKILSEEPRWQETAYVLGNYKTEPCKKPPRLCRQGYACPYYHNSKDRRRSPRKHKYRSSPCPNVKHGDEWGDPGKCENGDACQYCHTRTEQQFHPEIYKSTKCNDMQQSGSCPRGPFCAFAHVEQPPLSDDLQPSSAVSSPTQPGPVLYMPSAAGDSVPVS
Technique: RNA Bind-n-Seq
Molecule type: RNA
Medium: in vitro
Concentration: not given
Setting: RNA with constant flanks, human-mouse chimeric sites, ends assumed
Relative to: input RNA pool
Direction: higher = stronger binding
Oligonucleotide | bound/input enrichment [ratio]
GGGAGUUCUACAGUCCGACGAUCGACUUUGGAACUGGUCCUCGCAACGCAGCCUACUAUAGCCCUCAUGGACAUAUAUUAGUGCUGGCUGGAUUUGGAAAUCUUCGAGGACAAAUGGAAGUAUGGGAUGUUAAAAACUACAAGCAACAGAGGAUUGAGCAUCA | 0.36
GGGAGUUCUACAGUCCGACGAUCAAAGAACCUCUCUCUGAUGAAGAUGAGGAAGACAAUGAUGAUGUUGAACCCAUUUCUGAAUUUAGAUUUGUGCCCAGUGAUAAGUCAGCAUUGGAGGCGAUGUUCACUGCAAUGUGCGAGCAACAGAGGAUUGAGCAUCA | 2.59
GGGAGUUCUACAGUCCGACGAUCUGACAAGGGCACUGCAGAGCCAUGCCUUUCCUUGACAUACAGAAAAAGUUCGGCCUUAGCCUGGACCGGCACUUUAUGUUCCUAAGCGGUGAACAGCCCUAUAAGAACGCCGCUCGGUGCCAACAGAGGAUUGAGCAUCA | 0.102
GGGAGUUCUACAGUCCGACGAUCUUGCUACUGACUCCCUGGGUCAAGUUCCUGUGGGAAUCAUACAGGCAGUGUUUGGACCUUCUUAGAAACAAUUCUAGAGUAGAGCGCCUUUACCAUGAUAUCGCCCAGCAAGCUUUCAAACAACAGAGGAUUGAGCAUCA | 0.277
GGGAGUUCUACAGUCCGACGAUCGCAGGAUCUUCUAAGUACCAGUGGGGCAUUAUGAAAUCCCUUGGGCUGUCUGAUGAAGACAUAGUGAAGUUUUCUGAAGCAGAGCACUGGCUUGAUUAUUUCCCACCACUGGCCGUUCAGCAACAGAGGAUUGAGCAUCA | 0.125
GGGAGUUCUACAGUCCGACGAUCGUUGCCAGCUUCCGGUUGGCCUCCAUCCGGUUCUCUCCUGAGCUACGUGUCUCUACGUUUUAGGUGUGCCAUCCAACAAACAUGGAUCAGGUAAUGCAGUUUGUGGAGCCCAGCCGGCAGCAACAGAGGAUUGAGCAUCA | 0.138
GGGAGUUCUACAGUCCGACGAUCACCAUUUUCGCGGUUCAAGGUUUUGUGGUAGUUCACUUACGGUAUUAAAUUAUUAUUGCCCUUAGUUUAUAAUAAGGAUAAUUGCAUUUAAAGAGGUUACUGAAUGUUACUCUGAAACUUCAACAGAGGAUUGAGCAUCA | 0.487
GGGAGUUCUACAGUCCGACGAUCUUCAAAGAAAAGGGCAGCUGUGUCAUUUCAUAAGUAACUCUGGGGGAUAAGUGGAAGGUUCUUUUGUUUUUAGUUUUCCCAAAUGAAGCCAAAGUGUGUGUUGAAGAACUGAGAAAAAAUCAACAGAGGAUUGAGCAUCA | 0.198
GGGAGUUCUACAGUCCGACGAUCCACAGAGGAGAUCUGCUGUUCCUCACGAAUUUCCGGGAAGACCCAAUCAGAGCUGGUGAAAUAGUUGUUUUUAAGGUUGAAGGAAGAGACAUUCCGAUAGUUCACAGAGUAAUCAAGGUUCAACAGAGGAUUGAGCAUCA | 1.59
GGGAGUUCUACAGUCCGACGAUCGGCUGCUGGUGACUGUCCUGGAGUGGCCGUGUCACCGGCCGGAGCGCGGCCAGACUAAUUUUAGAAAAUGCCAAGUAGGAAGUUUGUCGAUGGUGAAGUGGUCAGAGGCCGAUGGCCUGGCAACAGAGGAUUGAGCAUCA | 1.86
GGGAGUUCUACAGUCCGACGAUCCCCCAAUACCAUUUGCAAGAGUUGGAAUGCACUCUCUUUUUUAAAAAACAUGUAUACAUUUUAGGGCUGUAGACUUAUUUUCCUGGUUUUGUUUUUCAUUGCUGACUUUUGAGCACAGAACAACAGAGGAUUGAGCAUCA | 1.19

Block 3
Target: Interferon regulatory factor 3, full length, phosphomimetic (IRF3, Homo sapiens, UniProt Q14653, residues 1-427, S386D/S396D/S398D/S402D/T404D/S405D)
Sequence of UniProt Q14653 (whole entry, unmodified, looked up): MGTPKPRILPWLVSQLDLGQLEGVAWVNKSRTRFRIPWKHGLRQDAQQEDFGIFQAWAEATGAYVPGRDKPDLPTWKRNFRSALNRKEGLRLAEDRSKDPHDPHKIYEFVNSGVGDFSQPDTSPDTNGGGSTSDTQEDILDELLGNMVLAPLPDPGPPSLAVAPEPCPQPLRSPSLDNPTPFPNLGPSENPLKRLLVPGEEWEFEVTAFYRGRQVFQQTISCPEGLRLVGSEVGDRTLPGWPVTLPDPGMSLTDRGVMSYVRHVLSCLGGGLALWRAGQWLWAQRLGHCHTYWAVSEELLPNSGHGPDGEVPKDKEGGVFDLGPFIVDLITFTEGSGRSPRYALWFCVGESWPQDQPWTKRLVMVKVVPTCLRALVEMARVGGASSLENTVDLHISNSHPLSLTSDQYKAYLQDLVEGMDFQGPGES
Technique: protein-binding microarray
Molecule type: double-stranded DNA, one strand shown
Medium: in vitro
Concentration: 2540 nM top
Setting: 60-bp whole probe
Added: salmon DNA 0.4 mg/ml
Relative to: random background probes
Direction: higher = stronger binding
Constant ends, left off below: GCCTAGCAC … GTCTTGATTCGCTTGACGCTGCTG
Oligonucleotide | fitted relative affinity [z-score]
GACGATTCCAGTTTCGAGGCGTGCTAG | 2.82
GACGATATCAGTTTCTAGACGTGCTAG | 2.61
TTAGGCATCGACTTTCGGTTAGTGCTA | 0.789
TTAGGTATCCATATCCTTTAGTGCTAG | 3.94
GACGTTTTCCTTTTCCTGACGTGCTAG | 7.99
TCATTCCTCTCACCTCGGACTGTGCTA | 1.17
TTATATATCGGGACTGGATTAGTGCTA | 0.349
TTAGATTTCAGTATCCATTAGTGCTAG | 3.31
GCCGGTATCGGACTGGGGACGTGCTAG | 2.04
TTAGGTATCGGGACTGGGATAGTGCTA | 1.25
TTAGGTTTCCTTTCACTTTAGTGCTAG | 10.3
TTTTTCTCCTATTTAAGACAGTGCTAG | 3.48
AACGGTTTCGGGTATCGGGACGTGCTA | 4.64
TTAGAACTCGGGACTGGATTAGTGCTA | -0.593
GACGGTTTCGTGTATCGGGACGTGCTA | 2.99
TTAGGACTGCTTCTCCTTTAGTGCTAG | 0.0266
GACGGTCTCCTTTTCCTGGCGTGCTAG | 4.83
GAAGATTTCAATTAGAAAAAGTGCTAG | 0.714
CCGTGTTTCTCAACCATTTTGTGCTAG | 1.24
TGCCTTTTTTTTTTTTTCTGGTGCTAG | 1

Block 4
Target: RNA binding protein fox-1 homolog 2, RRM domain, GST-SBP tag (RBFOX2, Homo sapiens, UniProt O43251-10, residues 100-194)
Technique: RNA Bind-n-Seq
Molecule type: RNA
Medium: in vitro
Concentration: 365 nM
Setting: natural RNA segment, single round, ends assumed
Relative to: no-protein control
Direction: higher = stronger binding
Construct (chain): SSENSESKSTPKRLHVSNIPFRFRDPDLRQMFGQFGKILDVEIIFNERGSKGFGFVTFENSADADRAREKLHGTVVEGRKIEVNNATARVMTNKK
Oligonucleotide | RBNS enrichment (R)
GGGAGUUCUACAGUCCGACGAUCGUUCAACAGGGCUCUUUGAUGACAGCUUUGGGAGGAUAAAUACGACUACGCACUUUAGAUAAGCCUCUUUUUAGUUCUUUCUGUUUCUCAAUAAUGGGCCAAAAAUACACUGGAAUUCUCGGGUGCCAA | 0.998
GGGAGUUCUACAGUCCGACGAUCUGUUGUUACAAAAAGUCUAAAUUACUGUUGGUUGAAACACAGCAGCUGUGGAGUUCAGUCCAGGCAUGAAGACUAAAUCUGCUUUACCAAGUAAGGUGUAAGGUUGCAUGUGGAAUUCUCGGGUGCCAA | 1.71
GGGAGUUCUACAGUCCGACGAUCAGGUACCCACGCCACAGGCCUCAGGAUGGCUUUUUGUCUGAGGGCCUCAUUAGGCCCAGACUGCUGCUGCUGGUACCAGUCUCCUGAGACACUGCCUCCCUGGAGCCCAUUGGAAUUCUCGGGUGCCAA | 0.337
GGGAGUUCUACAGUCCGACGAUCACUUUGCGUCGUUUCUGUACUUCUUUAAAACAACUAAGCCACCGUUCGCAGCUGAGUUGUGAUACUGACCUGGUAAUCAGACCAAAGUACUGUCCCGGCUGGUUUUAUCUUGGAAUUCUCGGGUGCCAA | 0.245
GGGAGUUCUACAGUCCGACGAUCGCCUGCCCCAGGUGUCCCGCUCCUCUCAGAGUCCUCCCCCUACCAGGUAGUGUGUAGCUCCAUUUCAGAAUGUUAACCUCCAGUGAAGAGCUAAUGACUGGUUAGAAGAUUGGAAUUCUCGGGUGCCAA | 0.658
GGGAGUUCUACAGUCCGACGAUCAAUUCCACCAAGACAGUGCUGAGAUUGGAAAAGGGCACUCAUUUGGAUUGCCUUACUUCUCUUGCCUUAAAUAUAUCCCAUAUAUUUAAUAUGUCAAAAAGGGCUUGAGGUGGAAUUCUCGGGUGCCAA | 0.547
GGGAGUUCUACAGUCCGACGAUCCAAUAUUUGAACUUUUAACUCUUGACAUUGAAAAAAAAGGAUUUGGAGAAAUUACCAAGAUUUUAACAUCUAUAAAAUUGGUAUGUCUUAAAAGUUAUUUCAAAAAUCCUUGGAAUUCUCGGGUGCCAA | 0.65
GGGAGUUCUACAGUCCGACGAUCGAGCCUGUGGCUGGCCCUCUGCUGCUGUUCUCUCCCUCCAACCUGGCUGUUUCUUGCGGGGCAAGGGGUGGGCUCAGGGCUGCAGGGGUUUCUCAAAGGCAAUCCAGCUUUGGAAUUCUCGGGUGCCAA | 0.305
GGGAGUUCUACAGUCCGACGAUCAGCAAGAAGGAAAAGCCAAUGUCUGGUGUCUCUCCCCCCGCCCCUACCCUGCGCGCAUCUAUGUCUUGUUUGGAAUAUUGUCUCUUCAACCCCCUGUUCAUGUCCUUCUCUGGAAUUCUCGGGUGCCAA | 4.08

For quick reference, copied from above (block 1):
Oligonucleotide | E-score
CACGGAGG | -0.226
AGTACGTG | -0.0994
ATCAGAAC | 0.0551
AGTCAGTG | 0.00904
ATAGCTTC | 0.102
